Measurements pooled from the literature.
Protocols differ between the studies behind these lines. Several values in a cell are separate wells, animals, samples, runs or records. Numbers after ± are the reported error.

Structure (SMILES) | target or system | test | system | setting | quantity | result
CC1(C)S[C@@H]2[C@H](NC(=O)Cc3ccccc3)C(=O)N2[C@H]1C(=O)O | PBP1b Streptococcus pneumoniae | Bocillin-FL competition | live Streptococcus pneumoniae cells | 30 min, together with: Bocillin-FL 600 nM | kinact/KI | 41000 ± 11000 M⁻¹ s⁻¹
Cn1cc(C(F)(F)F)nc1-c1ccc(OCC(O)CNCCOc2ccc(O)c(C(N)=O)c2)cc1 (stereo not shown) | Plasmodium falciparum |  | GB4 |  | IC50 | 12.6 µM
O=[Se](=O)(O)O | sulfate/chloride exchanger, human |  | neutrophils | external binding site | Km | 61.7 mM
Cc1ccc(OP(=O)(Oc2ccc(C)cc2)Oc2ccc(C)cc2)cc1 | mouse carboxylesterase |  | mouse, liver | dose not given, together with: MUA substrate | carboxylesterase activity | decreased
CO/N=C(\C(=O)N[C@@H]1C(=O)N2C(C(=O)O)=C(COC(C)=O)CS[C@H]12)c1csc(N)n1 | PBP1b Streptococcus pneumoniae | Bocillin-FL competition | live Streptococcus pneumoniae cells | 30 min, together with: Bocillin-FL 600 nM | kinact/KI | 52000 ± 4000 M⁻¹ s⁻¹
CCCCCCCCCCCCCCCC(=O)N[C@@H](C)C(=O)N[C@@H](CCCNC(=N)N)C(=O)N[C@@H](CCCCN)C(=O)N[C@@H](CCCCN)C(=O)N[C@@H](CO)C(=O)N[C@@H](CC(C)C)C(=O)N[C@@H](CCC(N)=O)C(=O)N[C@@H](CO)C(=O)N[C@@H](CC(C)C)C(=O)N[C@@H](CCC(N)=O)C(=O)N[C@@H](CO)C(=O)N[C@H](C(=O)N[C@H](C(=O)N[C@@H](Cc1c[nH]cn1)C(N)=O)C(C)C)[C@@H](C)O | NTSR1-RlucII and APJ-GFP10 heteromer | BRET2 titration | HEK293 | 50 µM | BRET50 | 10 ± 0.7 [GFP10]/[RlucII]
C[C@@H](Cc1ccsc1)NC(=O)NC[C@H](Cc1ccc(O)cc1)N(C)C | mu opioid receptor (human) | β-arrestin-2 recruitment |  |  | Emax | 0%
COc1cccc(OC)c1C(=O)N[C@@H]1C(=O)N2[C@@H]1SC(C)(C)[C@@H]2C(=O)O | PBP3 Streptococcus pneumoniae | Bocillin-FL competition | live Streptococcus pneumoniae cells | 30 min, together with: Bocillin-FL 600 nM | kinact/KI | 4800 ± 520 M⁻¹ s⁻¹
N#CC(=Cc1ccc(O)cc1)C(=O)O | sulfate/chloride exchanger, human | sulfate influx, inhibitor | neutrophils | together with: 2 µM nigericin, 85 mM K+ | Ki | 252 µM and 250 µM
Cc1cc(C)n2c1C=C1C=CC(CCC(=O)Nc3ccc(OCC(=O)N[C@@H]4C(=O)N5[C@@H]4SC(C)(C)[C@@H]5C(=O)[O-])cc3)=[N+]1[B-]2(F)F.[Na+] | PBP3, Streptococcus pneumoniae | inhibitor | live Streptococcus pneumoniae cells |  | kinact/Ki | 52300 ± 9400 M⁻¹ s⁻¹
Oc1cccc(N2[C@@H]3CC[C@H]2CN(Cc2ccccc2)C3)c1 | mu opioid receptor (human) | β-arrestin-2 recruitment |  |  | EC50 | > 50 µM
C[C@H](C(=O)N[C@H]1COc2ccccc2[C@@H]1S(C)(=O)=O)c1ccc(F)cc1 | NMDA receptor, rat, Glycine site | binding |  | 10 µM, Eurofins selectivity panel | inhibition | 5%
N[C@@H]1C[C@H]1c1ccccc1 (racemic) | H+/organic cation antiporter | cell uptake | hCMEC/D3 |  | Vmax | 493 pmol/min/mg protein
O=C(Nc1cccnn1)N1CCN([C@@H]2CCOc3cc(C(F)(F)F)ccc32)CC1 | sodium channel site 2 | binding |  | 20 µM | inhibition | 76%
c1ccc(C(NCCNC(c2ccccc2)c2ccccc2)c2ccccc2)cc1 | adrenergic alpha1 receptor, rat | binding |  | 10 µM, Eurofins selectivity panel | inhibition | 89%
Fc1ccc(C(OCCCc2c[nH]cn2)c2ccc(F)cc2)cc1 | Plasmodium falciparum |  | 7G8 |  | IC50 | 2 µM
O=[N+]([O-])O | sulfate/chloride exchanger, human |  | neutrophils | external binding site | Km | 18.4 mM
Oc1cccc(N2[C@@H]3CC[C@H]2CN(CCCc2ccccc2)C3)c1 | mu opioid receptor (human) | β-arrestin-2 recruitment |  |  | EC50 | > 50 µM
Cc1onc(-c2c(Cl)cccc2Cl)c1C(=O)N[C@@H]1C(=O)N2[C@@H]1SC(C)(C)[C@@H]2C(=O)O | PBP3 Streptococcus pneumoniae | Bocillin-FL competition | live Streptococcus pneumoniae cells | 30 min, together with: Bocillin-FL 600 nM | kinact/KI | 32000 ± 5100 M⁻¹ s⁻¹
C/C(=C/C=C/[C@@H](C)C(=O)O)[C@H]1CN[C@H](C(=O)O)[C@H]1CC(=O)O | GluK2/GluK5 kainate receptor rat | peak current, agonist, whole-cell patch clamp |  | pH 7.4, holding potential -70 mV, extrapolated | EC50 | 125 ± 29.5 µM
CCN1CCN(Cc2ccc(Nc3nc4ccc(Oc5ccnc(NC(=O)C6CCN(C)CC6)c5)cc4n3C)cc2C(F)(F)F)CC1 | β-hematin formation | detergent-based |  |  | IC50 | 13 µM
CC(=O)SCC[N+](C)(C)C | acetylcholinesterase, mammalian red blood cell | enzyme activity, substrate, Ellman | red blood cell ghosts | pH 7.4 | Km | 0.07 mM
CC1(C)S[C@@H]2[C@H](NC(=O)[C@H](N)c3ccccc3)C(=O)N2[C@H]1C(=O)O | PBP1b Streptococcus pneumoniae | Bocillin-FL competition | live Streptococcus pneumoniae cells | 30 min, together with: Bocillin-FL 600 nM | kinact/KI | 2000 ± 310 M⁻¹ s⁻¹
CN1C[C@H]2CC[C@@H](C1)N2c1cccc(O)c1 | mu opioid receptor (human) | β-arrestin-2 recruitment |  |  | EC50 | > 50 µM
CC1(C)S[C@@H]2[C@H](/N=C/N3CCCCCC3)C(=O)N2[C@H]1C(=O)O | PBP3 Streptococcus pneumoniae | Bocillin-FL competition | live Streptococcus pneumoniae cells | 30 min, together with: Bocillin-FL 600 nM | kinact/KI | 620 ± 150 M⁻¹ s⁻¹
Oc1cccc(CN2[C@@H]3CC[C@H]2CN(CCCc2ccccc2)C3)c1 | mu opioid receptor (human) | β-arrestin-2 recruitment |  |  | EC50 | > 50 µM
CCN1CCN(C(=O)N[C@@H](C(=O)N[C@@H]2C(=O)N3[C@@H]2SC(C)(C)[C@@H]3C(=O)O)c2ccccc2)C(=O)C1=O | PBP1b Streptococcus pneumoniae | Bocillin-FL competition | live Streptococcus pneumoniae cells | 30 min, together with: Bocillin-FL 600 nM | kinact/KI | 2500 ± 620 M⁻¹ s⁻¹
COc1cc(Nc2ncc(F)c(Nc3ccc4c(n3)NC(=O)C(C)(C)O4)n2)cc(OC)c1OC | TNF (non-selective) |  |  |  | IC50 | > 10 µM

Repeated from above:
Structure (SMILES) | target or system | test | system | setting | quantity | result
CN1C[C@H]2CC[C@@H](C1)N2c1cccc(O)c1 | mu opioid receptor (human) | β-arrestin-2 recruitment |  |  | EC50 | > 50 µM
CC1(C)S[C@@H]2[C@H](/N=C/N3CCCCCC3)C(=O)N2[C@H]1C(=O)O | PBP3 Streptococcus pneumoniae | Bocillin-FL competition | live Streptococcus pneumoniae cells | 30 min, together with: Bocillin-FL 600 nM | kinact/KI | 620 ± 150 M⁻¹ s⁻¹
Oc1cccc(CN2[C@@H]3CC[C@H]2CN(CCCc2ccccc2)C3)c1 | mu opioid receptor (human) | β-arrestin-2 recruitment |  |  | EC50 | > 50 µM
CCN1CCN(C(=O)N[C@@H](C(=O)N[C@@H]2C(=O)N3[C@@H]2SC(C)(C)[C@@H]3C(=O)O)c2ccccc2)C(=O)C1=O | PBP1b Streptococcus pneumoniae | Bocillin-FL competition | live Streptococcus pneumoniae cells | 30 min, together with: Bocillin-FL 600 nM | kinact/KI | 2500 ± 620 M⁻¹ s⁻¹
COc1cc(Nc2ncc(F)c(Nc3ccc4c(n3)NC(=O)C(C)(C)O4)n2)cc(OC)c1OC | TNF (non-selective) |  |  |  | IC50 | > 10 µM
